Measured values pooled from the literature.
Each numbered part is a random draw from the data of one study; scales do not carry over between parts. Changes are numbered by the printed parent chain.

Series 1 — method: RNA Bind-n-Seq; molecule type: RNA; sample: in vitro; tested at: 200 nM; notes: whole 134-nt RNA, ends assumed; added: 150 mM KCl; baseline: input library; direction: higher = stronger binding
Target: Ras GTPase-activating protein-binding protein 1, full length (G3BP1, Homo sapiens, UniProt Q13283)
Chain of UniProt Q13283 (whole entry, looked up): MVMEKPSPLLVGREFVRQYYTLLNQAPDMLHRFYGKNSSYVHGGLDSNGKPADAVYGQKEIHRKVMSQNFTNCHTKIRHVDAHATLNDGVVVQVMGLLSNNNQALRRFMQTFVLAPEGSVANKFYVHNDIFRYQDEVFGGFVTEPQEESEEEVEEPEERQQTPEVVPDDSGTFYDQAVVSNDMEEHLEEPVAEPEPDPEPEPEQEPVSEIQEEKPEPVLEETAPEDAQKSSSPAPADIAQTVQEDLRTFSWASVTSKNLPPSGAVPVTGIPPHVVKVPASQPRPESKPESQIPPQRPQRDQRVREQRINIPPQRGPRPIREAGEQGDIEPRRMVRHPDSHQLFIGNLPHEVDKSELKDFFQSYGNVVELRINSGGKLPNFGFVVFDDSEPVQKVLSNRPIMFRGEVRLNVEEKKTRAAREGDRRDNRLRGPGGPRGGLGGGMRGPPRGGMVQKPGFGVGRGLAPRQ
Constant ends, left off below: GGGAGUUCUACAGUCCGACGAUC … UGGAAUUCUCGGGUGUCAAGG
Strand | log2 enrichment
UCCUGUGCUACACAUCGUAUGUACCGAAUCAAAUUUUUAAAUUUUUUUAAACCCCCAAAAAAGUAUUAUGUUACGCCGUUCGGAUCUGCA | 0.0895
CAAGUCCUGUGCUACACAUCGUAUGUACCGAAUCGGAAAAAGGUUUGGAAAAAGGAAAGUAUUAUGUUACGCCGUUCGGAUCUGCACUUC | -1.28
GUCCUGUGCUACACAUCGUAUGUACCGAAUCGGGUUUUUUUGGGUGGGAAAAAAAGGGAAAGUAUUAUGUUACGCCGUUCGGAUCUGCAC | -0.361
AAGUCCUGUGCUACACAUCGUAUGUACCGAAUCAAACCCAAACCCAAAUUUUUAAAAAAGUAUUAUGUUACGCCGUUCGGAUCUGCACUU | -0.484
UCAAGUCCUGUGCUACACAUCGUAUGUACCGAAUCGGGAGGGAAAGGGUUUGGGAAAGUAUUAUGUUACGCCGUUCGGAUCUGCACUUCC | 0.971
UCCUGUGCUACACAUCGUAUGUACCGAAUCGGGGCCCCCCGGCCCCCCGGGCCCCCCGGAAAGUAUUAUGUUACGCCGUUCGGAUCUGCA | -0.00802
AGUCCUGUGCUACACAUCGUAUGUACCGAAUCGGCCCCCGGCCCCCGGCCCCCGGGGAAAGUAUUAUGUUACGCCGUUCGGAUCUGCACU | -0.527
AAGUCCUGUGCUACACAUCGUAUGUACCGAAUCGGAAAAAGGAAAAAGGUUUUUGGAAAGUAUUAUGUUACGCCGUUCGGAUCUGCACUU | -1.6
ACCAUGCAGGUGGGCAUCUUUGGGAAGUGGGGCAAGGGGGGGAUAGGGCGGGGGGUAACACUUUGGGAACAGGUGGUCCCAGGUCGUUUC | 1.21
CAAGUCCUGUGCUACACAUCGUAUGUACCGAAUCGGAAAAAAAGGAAAAAGGUGGAAAGUAUUAUGUUACGCCGUUCGGAUCUGCACUUC | -1.09
CAAGUCCUGUGCUACACAUCGUAUGUACCGAAUCGGUUUUGGUUUUGGGUUUUGGGAAAGUAUUAUGUUACGCCGUUCGGAUCUGCACUU | -1.27
GCAGGAAGUAAAAACAAUUGGAAAUGCUUCGGAUAGUGGCAGGGGUGGGGGUUGCUAAGGAAAGGGUGGGAUGGGAGUGGGUAAAGAGUU | 0.755
UUACUACCUCCGCCUUCAUUUCCGUCAGCAAUCCCGGCGCGGGCUCCCCGGCCCCCGCCAGCCCGCCUCCCCUCGCUGUGCCCGGGACCG | 0.718
GCAGGAAGUAAAAACAAAUGGAAAUGCUUCGGAUAGUGGCAGGGGUGGGAGUUGCUAAGGAAAGGGUGGGAUGGGAGUGGGUAAAGAGUU | 0.95

Series 2 — method: DHFR PCA, deep sequencing; sample: yeast; added: (+)-ABA 1.4 µM; baseline: wild-type fitted maximum; direction: higher = stronger binding
Target: ABI1, truncated, D143A, DHFR fusion (Arabidopsis thaliana)
Notes: methotrexate growth selection, single substitutions
Starting sequence: PYL1, truncated, DHFR fusion (Arabidopsis thaliana); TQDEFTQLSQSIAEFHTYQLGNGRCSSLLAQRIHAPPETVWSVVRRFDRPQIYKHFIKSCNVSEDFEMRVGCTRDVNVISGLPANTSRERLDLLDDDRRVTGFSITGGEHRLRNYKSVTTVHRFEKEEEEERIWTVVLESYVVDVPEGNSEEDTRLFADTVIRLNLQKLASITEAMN; partner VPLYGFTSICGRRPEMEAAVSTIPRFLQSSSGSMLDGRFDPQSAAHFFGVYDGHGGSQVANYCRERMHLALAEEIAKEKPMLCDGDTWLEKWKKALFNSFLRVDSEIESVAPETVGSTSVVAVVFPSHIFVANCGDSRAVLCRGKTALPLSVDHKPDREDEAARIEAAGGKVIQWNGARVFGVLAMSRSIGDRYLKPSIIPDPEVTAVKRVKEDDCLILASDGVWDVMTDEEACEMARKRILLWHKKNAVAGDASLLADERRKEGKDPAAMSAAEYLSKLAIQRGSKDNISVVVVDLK
Change | relative binding score
N61E | 68.7%
N22Y | 52.6%
F5Y | 31.1%
Q19A | 58.6%
I33L | 6.57%
N77I | 61.8%
L169G | 1.11%
E14N | -6.85%
T135K | -5.84%
A170L | -21.3%
S42D | 49.5%
N22L | 47.7%
I133H | 63%
S27V | 1.25%

Series 3 — method: RNA Bind-n-Seq; molecule type: RNA; sample: in vitro; tested at: 365 nM; baseline: no-protein control; direction: higher = stronger binding
Target: RNA binding protein fox-1 homolog 2, RRM domain, GST-SBP tag (RBFOX2, Homo sapiens, UniProt O43251-10, residues 100-194)
Notes: natural RNA segment, single round, ends assumed
Constant ends, left off below: GGGAGUUCUACAGUCCGACGAUC … UGGAAUUCUCGGGUGCCAA
Construct (chain): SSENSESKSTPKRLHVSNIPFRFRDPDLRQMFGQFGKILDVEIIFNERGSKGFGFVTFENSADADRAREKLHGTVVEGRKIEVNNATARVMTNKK
Strand | RBNS enrichment (R)
UAAAUAUUUGUCCUUAAAGGGUUUGAGAUGUACAUCUUUCAUUUCGUAUUUCUCAUAGGCUAUGCCAUGUGCGGAAUUCAAGUUACCAAUGUAACACUGGCCAGCGGGCC | 0.491
GGAGAGCACGUUGAUCUGAACUUUAAAUCAAUCAGUGCUGCUGGCACAAUGAAAGGUGGAACUGCACUUCUGUUGAGCUCUCAGUUCUGCGGAAUUUGGUACUCAUUACC | 0.78
UCUUCAUCGGUUGGAUUGGAUGCUUACAGGGUUUUUCUUGUAACAUUUAUAAGUGCUGCUUACAUCACUGAACAACAACAAAAAAAUAAUAAUGGAGUAGCUGUUGCCCU | 0.289
UUUUCUACACAUUUUGCCAGGUCAGGCAUUUUGCUAGUAAGCAGGAUGCCCCCAACUCUCCCUGCCAUGGAGGAUUCUUUUUUUUAAGCUUUGGGUGCUUUUUUAAUACU | 0.627
GGACUUAUUAUGUGAGUGUUUUGCCUUUAAUCCUUGGGGUUCAACAAUAAAAGAGUCUGAAAAUUGGGAGAGAAAACCUACUCUAGGAGCCUCUGGUUACACAUAUUUUA | 0.409
UACAGUGCCAAAAUGCCCCAGAGAGGCUCCAUUACUUCUGGAGCCUACAAAGCUGUUCCCUGAUGUCACAGGUCCCUCCGACUCAUUUUCCAGGAGACUUUGCCUUGAGG | 0.3
UACAGUUUUGAUUUAUUUACAAUAUAUGCUGUGCCAUUUUGAUUUUUAUAUUGUUUGGUUGGUUGAAUAAAUUUGCGACACUCAAACACUUGAGGUGAUAGUUGUUAAAA | 0.553
ACAGGGUUGGGCCUAGACGGAGUCCCCUGCAAUUAGCUUUCUAGGAUCUACCACACUUCUGUGAAAGCCACCUUCCCCCCACAUCUCAGUUCUCUUGGCCUCAAAACUCA | 1.29
GGGGUUGUUUUGUUUUUUUAAUUUGAGGCUCAAUUCUUCAUUUAUACUUGAAAAAAACAAGGCCAUAUGUAAAGAAAAAAAAAAACCCUCUUUCAAUGCCUAAGUGUCUU | 0.502
UCCUCACGACUCUUCAUCAACCAAGGAGCCUCCAGACAGAGAGGAGGAAGAAGGAAUUCACUAGGUUUUAACAAUGUUUCUCCUGCUCCUUUCUUCUCCCUAUCAGAGCU | 0.222
AGUGGGCUUUGAAGUGUGUGCUGCUUACUCCUUUCAUCUUUCUCCCCGCUUCCCCAGUCUUUAAACAUUGGACGCUAUUUACUCAGCUACCCAGUAGAGCUUGAAGCUGA | 0.565
AGAGGCCCUGGACAGAAGCUCCAGAUAGGCCCCUAGAACAUGAAGCAGUUUGCUCUGUGCGUCCACGGCCUAGGUGUUUCUUGGGGGUGUUGGGAGGGCAGGAGCAUUCC | 0.272

Series 4 — method: universal PBM; molecule type: double-stranded DNA, one strand shown; sample: in vitro; tested at: not given; direction: higher = stronger binding
Target: Sal-like protein 4, full length isoform B (SALL4, Homo sapiens, UniProt Q9UJQ4-2, residues 1-616)
Notes: 8-mer, flanks averaged, mean of replicates
Strand | E-score
CGTGATAC | 0.0101
CTGGTCGA | -0.307
AATGCCGC | -0.147
CTCTGGTC | -0.0997
AACAAACC | 0.0574
AATCTAGG | 0.117
GGCCCAGA | -0.17
CTCCGATC | -0.277
CCAAGTGC | -0.102
CATCGGCA | -0.135
ACTGTTCT | 0.104
AGTTTCAG | -0.148
GACCACAA | -0.0797
CGTAACGA | -0.0453
CACAATCG | 0.00388
ATTTGAAC | 0.16
TACACTCA | 0.172
GTTAATCA | 0.275
AATGCCAA | 0.0932
CCGCCCGA | -0.262
AGAACATC | -0.0187
GGTACTAC | 0.0554
CGTTGCAA | -0.09
CGAGAAGA | -0.00311
ACTTCGAC | 0.0419

Series 5 — target: CCNA1, cyclin fold, Cln2 fusion (human); method: yeast growth competition, sequencing; sample: yeast; notes: weak parent motif; baseline: not given; direction: higher = stronger binding
Starting sequence: CDKN1C docking peptide (human); TSACRSLFGPVDH; partner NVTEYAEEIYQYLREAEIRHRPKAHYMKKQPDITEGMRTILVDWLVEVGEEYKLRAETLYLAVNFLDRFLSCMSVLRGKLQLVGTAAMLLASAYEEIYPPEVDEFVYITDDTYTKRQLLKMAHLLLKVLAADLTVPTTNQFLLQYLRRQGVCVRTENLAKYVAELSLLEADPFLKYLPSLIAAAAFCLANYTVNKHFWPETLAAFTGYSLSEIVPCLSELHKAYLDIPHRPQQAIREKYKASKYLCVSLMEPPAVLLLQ
Change | normalised enrichment score
R5K F8L | -0.0261
T1A | 0.572
D12A | 0.309
R5A L7A | -0.024
P10A | 0.327
R5K | 0.364
S2A | 0.354
V11A | 0.477
H13A | 0.408

Some of these lines once more (series 4):
Strand | E-score
CGTAACGA | -0.0453
AATCTAGG | 0.117
ATTTGAAC | 0.16
TACACTCA | 0.172
CTCTGGTC | -0.0997
AGAACATC | -0.0187
CCAAGTGC | -0.102
CACAATCG | 0.00388
CGTGATAC | 0.0101
CTGGTCGA | -0.307
